Published values of several laboratories.
Each line is one published result; not all experiments were run side by side. Several values in a cell are separate wells, animals, samples, runs or records. ± gives the spread as reported.
Sequence of UniProt Q9UM73 (whole entry, unmodified, looked up): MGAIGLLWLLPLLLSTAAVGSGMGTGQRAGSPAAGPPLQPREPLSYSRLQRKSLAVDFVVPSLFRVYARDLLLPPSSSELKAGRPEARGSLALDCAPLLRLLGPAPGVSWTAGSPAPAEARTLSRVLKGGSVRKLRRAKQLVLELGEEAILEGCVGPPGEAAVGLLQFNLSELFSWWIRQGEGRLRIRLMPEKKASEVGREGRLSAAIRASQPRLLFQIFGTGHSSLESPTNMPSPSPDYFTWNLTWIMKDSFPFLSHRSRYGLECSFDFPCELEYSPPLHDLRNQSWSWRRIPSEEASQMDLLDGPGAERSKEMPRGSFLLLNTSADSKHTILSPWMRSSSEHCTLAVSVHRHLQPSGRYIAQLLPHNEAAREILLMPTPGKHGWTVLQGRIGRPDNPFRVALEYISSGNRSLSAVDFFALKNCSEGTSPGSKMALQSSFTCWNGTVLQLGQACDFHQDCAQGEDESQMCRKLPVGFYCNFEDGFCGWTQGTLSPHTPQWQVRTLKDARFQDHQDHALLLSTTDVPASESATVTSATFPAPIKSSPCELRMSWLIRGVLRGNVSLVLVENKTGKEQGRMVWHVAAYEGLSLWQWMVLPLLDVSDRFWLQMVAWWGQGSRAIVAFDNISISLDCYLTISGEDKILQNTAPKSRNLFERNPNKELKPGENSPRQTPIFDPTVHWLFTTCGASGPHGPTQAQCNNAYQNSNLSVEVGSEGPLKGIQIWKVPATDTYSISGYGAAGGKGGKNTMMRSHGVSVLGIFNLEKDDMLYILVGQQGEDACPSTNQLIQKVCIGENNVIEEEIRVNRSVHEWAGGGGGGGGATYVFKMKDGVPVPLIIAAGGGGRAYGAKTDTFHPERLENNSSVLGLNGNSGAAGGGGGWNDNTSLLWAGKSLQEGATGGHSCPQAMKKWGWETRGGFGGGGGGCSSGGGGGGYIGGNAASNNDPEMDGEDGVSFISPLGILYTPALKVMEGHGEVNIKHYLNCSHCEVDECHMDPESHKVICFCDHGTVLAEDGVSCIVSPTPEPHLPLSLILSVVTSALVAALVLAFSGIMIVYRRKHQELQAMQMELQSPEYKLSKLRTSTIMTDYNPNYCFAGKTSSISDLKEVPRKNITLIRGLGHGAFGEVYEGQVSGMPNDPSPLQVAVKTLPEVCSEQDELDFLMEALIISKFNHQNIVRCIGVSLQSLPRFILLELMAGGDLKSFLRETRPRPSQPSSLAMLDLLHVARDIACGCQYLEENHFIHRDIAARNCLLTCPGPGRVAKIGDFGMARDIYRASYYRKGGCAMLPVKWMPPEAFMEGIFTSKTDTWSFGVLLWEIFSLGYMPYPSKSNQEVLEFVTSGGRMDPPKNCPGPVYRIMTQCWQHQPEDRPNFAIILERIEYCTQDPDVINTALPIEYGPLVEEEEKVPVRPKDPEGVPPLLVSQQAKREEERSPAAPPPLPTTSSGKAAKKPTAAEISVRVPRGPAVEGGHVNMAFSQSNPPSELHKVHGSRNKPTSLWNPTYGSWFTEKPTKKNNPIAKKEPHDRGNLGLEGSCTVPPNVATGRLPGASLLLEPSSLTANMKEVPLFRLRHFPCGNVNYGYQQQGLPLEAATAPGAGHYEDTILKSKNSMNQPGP

Compound	tested on	test	system	setting	how to read	quantity	result
O=C(Nc1cnccc1-c1ccc([18F])cc1)c1ccnc(NC(=O)C2CC2)c1	–	–	FVB/NJ mice (both sexes), spleen	intravenous, dose not given, 120 min, together with: tariquidar 15 mg/kg i.v. pre-dose	–	SUV	0.36
F[C@@H]1[C@H](c2ccc(-c3cncnc3)cc2)[C@H](F)[C@H](F)C[C@@H]1F	–	hepatocyte stability	cryopreserved human hepatocytes	1 µM	–	hepatic clearance	6.2 mL/min/kg
COc1cccc(OC)c1-c1cc(C(=O)NC2(C(=O)O)C3CC4CC(C3)CC2C4)nn1-c1ccc(C(=O)NCCNC(=O)[C@H](CCCCNC(=O)[C@H](CC(C)C)NC(=O)C2OC2C(=O)O)NC(=O)CN2CCN(CC(=O)[O-])CCN(CC(=O)[O-])CCN(CC(=O)[O-])CC2)cc1C(C)C.[177Lu+3] (mixture of isomers)	–	–	mouse, HT-29 xenograft	24 h post injection, biodistribution	relative to: tumour over bone uptake	tumour-to-bone ratio	24.1
CCCC[C@H](NC(=O)CNC(=O)CNC(=O)[C@H](CCCCNC(=O)[C@H](CC(N)=O)NC(=O)C(C)c1ccc(CC(C)C)cc1)NC(=O)CN1CCN(CC(=O)O)CCN(CC(=O)O)CCN(CC(=O)O)CC1)C(=O)N[C@H]1CC(=O)NCCCC[C@@H](C(N)=O)NC(=O)[C@H](Cc2c[nH]c3ccccc23)NC(=O)[C@H](CCCNC(=N)N)NC(=O)[C@@H](Cc2ccccc2)NC(=O)[C@H](Cc2c[nH]cn2)NC1=O (stereo partly drawn) [lutetium-177 labelled]	–	–	C57 mouse, urine	2 h	–	urinary excretion	67.1 ± 3.44%
CC(C)C[C@H](NC(=O)[C@@H](CCCCNC(=O)[C@@H](Cc1ccccc1)NC(=O)CCCCCNC(=O)CN1CCN(CC(=O)O)CCN(CC(=O)O)CCN(CC(=O)O)CC1)NC(=O)[C@H](Cc1ccc(O)cc1)NC(=O)[C@H](CO)NC(=O)[C@H](Cc1c[nH]c2ccccc12)NC(=O)[C@H](Cc1c[nH]cn1)NC(=O)[C@@H]1CCC(=O)N1)C(=O)N[C@@H](CCCNC(=N)N)C(=O)N1CCC[C@H]1C(=O)NCC(N)=O [indium-111 labelled]	–	–	female athymic nude mice, heart	intravenous, 0.037 MBq, 2 h	–	tissue uptake	0.06 ± 0.03 %ID/g
C=C1CC[C@H](OCCCNC(=O)CCOCCOCCOCCOCCOCCOCCOCCOCCOCCOCCOCCOCCOCCOCCOCCOCCOCCOCCOCCOCCOCCOCCOCCOCCOCCOCCOCCOCCOCCOCCOCCOCCOCCOCCOCCOCCNC(=O)CCN2C(=O)CC(SC[C@H](NC(=O)[C@H](Cc3ccccc3)NC(=O)[C@H](CC(N)=O)NC(=O)[C@H](Cc3c[nH]cn3)NC(=O)[C@@H](NC(=O)[C@H](CC(=O)O)NC(=O)[C@H](CCC(N)=O)NC(=O)[C@H](CC(C)C)NC(=O)[C@H](CCCCN)NC(=O)[C@H](CCCCN)NC(=O)[C@H](CCCNC(=N)N)NC(=O)[C@H](CC(C)C)NC(=O)[C@H](Cc3c[nH]c4ccccc34)NC(=O)[C@H](CCC(=O)O)NC(=O)[C@@H](NC(=O)[C@H](CCCNC(=N)N)NC(=O)[C@H](CCC(=O)O)NC(=O)[C@H](CCSC)NC(=O)[C@H](CO)NC(=O)[C@H](CC(N)=O)NC(=O)[C@H](CC(C)C)NC(=O)[C@H](Cc3c[nH]cn3)NC(=O)[C@H](CCCCN)NC(=O)CNC(=O)[C@H](CC(C)C)NC(=O)[C@H](CC(N)=O)NC(=O)[C@H](Cc3c[nH]cn3)NC(=O)[C@H](CCSC)NC(=O)[C@H](CC(C)C)NC(=O)[C@H](CCC(N)=O)NC(=O)[C@@H](NC(=O)[C@H](CCC(=O)O)NC(=O)[C@H](CO)NC(=O)[C@@H](NC(=O)[C@@H](N)CO)C(C)C)[C@@H](C)CC)C(C)C)C(C)C)C(=O)O)C2=O)C/C1=C/C=C1\CCC[C@]2(C)[C@@H]([C@H](C)CCCC(C)(C)O)CC[C@@H]12 (stereo partly drawn)	–	–	male Sprague-Dawley rat, plasma	intravenous, 100 µg/kg, single dose	–	half-life	8.43 h
Cc1nn(-c2cccc(N)c2)c(=O)c2cnc(Nc3ccc(N4CCNCC4)cc3)nc12	Serine/threonine-protein kinase N1 (PKN1, Homo sapiens, UniProt Q16512)	enzyme activity, inhibitor	–	–	–	IC50	> 10000 nM
O=C(CC(F)(F)F)Nc1ccc(C2CCCCC2)cc1	–	liver microsome stability	rat liver microsomes	1 µM	–	hepatic clearance	52 mL/min/kg
C=CC(=O)Nc1cccc(Cn2ncc3cnc(Nc4cnn(CCOC)c4)nc32)c1	PRKCQ human	binding, KINOMEscan	–	100 nM	lower = stronger binding	percent of control	100%
O=C(CN1CCCCC1)Nc1ccc([C@H]2[C@@H](F)[C@@H](F)C[C@@H](F)[C@H]2F)cc1	–	–	rat liver microsomes	1 µM	–	hepatic clearance	33 mL/min/kg
C=C(NC(=O)c1csc(-c2nc3c(cc2O)-c2nc(cs2)C(=O)NC(C(C)O)C(=O)NC(=C(C)OC)c2nc(cs2)C(=O)NC2c4nc(cs4)C(=O)NC(COC(=O)c4c5c6c(cccc6n4O)COC(=O)C(OC4CC(C)(O)C(N(C)C)C(C)O4)C2OC5)c2nc-3cs2)n1)C(N)=O (stereo not drawn)	–	–	Sprague-Dawley rat, female, plasma	intravenous infusion, 2 mg/kg single dose	–	volume of distribution	6.2 L/kg
O=C(CN1CN(c2ccc(Cl)c(Cl)c2)C2(CCN(C(=O)c3ccc4[nH]ncc4c3)CC2)C1=O)NCC(F)(F)F	–	–	human liver microsomes	–	–	CLint	350 µL/min/mg protein
C=CC(=O)N1[C@@H](c2ccc3c(c2)OCO3)c2[nH]c3ccccc3c2C[C@H]1C(=O)N1CCN(C)CC1	human cyclin E1 N112C-3xFLAG:CDK2	co-IP with TMT proteomics, measured: PCMT1	–	concentration not given, P22061	relative to: wild type DMSO	relative co-enrichment	131%
CCCC[C@H](NC(=O)CCCCCCCNC(=O)CN1CCN(CC(=O)O)CCN(CC(=O)O)CC1)C(=O)N[C@H]1CC(=O)NCCCC[C@@H](C(N)=O)NC(=O)[C@H](Cc2c[nH]c3ccccc23)NC(=O)[C@H](CCCNC(=N)N)NC(=O)[C@@H](Cc2ccccc2)NC(=O)[C@H](Cc2c[nH]cn2)NC1=O [technetium-99m labelled]	–	–	C57 mouse, blood	intravenous, 0.037 MBq, 0.5 h	–	tissue uptake	1.28 ± 0.35 %ID/g
CCCNC(=O)[C@H]1O[C@@H]1C(=O)N[C@H](C(=O)N1CCC[C@H]1C(=O)OCC1=C2C(C)=CC(C)=[N+]2[B-](F)(F)n2c(C)cc(C)c21)[C@@H](C)CC	–	Nd:YAG laser irradiation	methanol	irradiation at 532 nm	–	photodecomposition quantum yield	0.19 ± 0.02%
COc1ccc(-c2ccc([C@H]3[C@@H](F)[C@@H](F)C[C@@H](F)[C@H]3F)cc2)cc1OC	–	hepatocyte stability	cryopreserved human hepatocytes	1 µM	–	hepatic clearance	11 mL/min/kg
COc1cccc(OC)c1-c1cc(C(=O)NC2(C(=O)O)C3CC4CC(C3)CC2C4)nn1-c1ccc(C(=O)N(C)CCCN(C)C(=O)[C@H](CCCCNC(=O)[C@H](CC(C)C)NC(=O)C2OC2C(=O)O)NC(=O)CN2CCN(CC(=O)[O-])CCN(CC(=O)[O-])CCN(CC(=O)[O-])CC2)cc1C(C)C.[177Lu+3] (mixture of isomers)	–	–	mouse, HT-29 xenograft	168 h post injection, biodistribution	relative to: tumour over bone uptake	tumour-to-bone ratio	30
CC[C@H](C)[C@H](NC(=O)[C@H](CCC(N)=O)NC(=O)[C@@H](NC(=O)[C@@H]1CCCN1[C@@H]1CN(C(=O)[C@H](CCCCN)NC(=O)[C@H](CC(N)=O)NC(=O)[C@@H](NC(=O)[C@@H](NC(=O)[C@H](CCC(N)=O)NC(=O)[C@@H](N)C(C)C)[C@@H](C)CC)[C@@H](C)CC)CC[C@H]1NS(=O)(=O)c1ccc(C)cc1)C(C)C)C(=O)N[C@H](C(=O)N[C@@H](Cc1ccc(O)cc1)C(=O)N[C@@H](CCCCN)C(N)=O)C(C)C	–	circular dichroism	methanol	125 µM, 20 °C	–	helix content	0%
CCn1nc(Cl)c2c1-c1cnc(N)c(c1)O[C@H](C)c1cc(F)ccc1-c1nn(C)cc1C2	ALK tyrosine kinase receptor (ALK, Homo sapiens, UniProt Q9UM73, R1275Q)	enzyme activity, inhibitor	–	together with: 1 mM ATP	–	IC50	0.8 nM
C=C[C@]1(C)C[C@@H](OC(=O)CSc2ccc(NC(=O)c3ccco3)cc2)[C@]2(C)[C@H](C)CC[C@]3(CCC(=O)[C@H]32)[C@@H](C)[C@@H]1O	–	–	Mycoplasma gallisepticum-infected chickens, plasma	intramuscular, 5 mg/kg, 0.25 h	–	plasma concentration	349 ng/mL and 575 ng/mL and 334 ng/mL and 1070 ng/mL and 1090 ng/mL and 601 ng/mL and 352 ng/mL and 679 ng/mL
CCC1=[N+]2N=C(c3ccccc3)C(=O)O[B-]2(c2ccccc2)Oc2cc(N(CC)CC)ccc21 (stereo not drawn)	–	–	toluene	–	–	fluorescence quantum yield	0.72
O=C(CN1CCOCC1)Nc1ccc(C2CCCCC2)cc1	–	liver microsome stability	mouse liver microsomes	1 µM	–	hepatic clearance	80 mL/min/kg
COC(=O)[C@@]1(C)C=C(C(=O)Nc2cccc(C(=O)Nc3ccc(Nc4nccc(-c5cccnc5)n4)c(C)c3)c2)C(=O)CC1	–	–	Wistar rat, male, plasma	1 µM, 20 min	–	compound remaining	36.6%
COC1CN([C@H]2CC[C@H]([C@@]3(C)Oc4c(Cl)cc(C(=O)NCc5c(SC)cc(C)[nH]c5=O)c(C)c4O3)CC2)C1	–	RNA-seq, measured: S100A10 mouse homolog	mouse, HT-1376 xenograft, whole blood	dose not given	relative to: vehicle	log2 fold change	0.541
Nc1ncc(-c2cc(-c3cnn(CC(F)(F)F)c3)ncc2F)nc1C(=O)NC1CNCC(F)C1 (stereo not drawn)	TRKA	KINOMEscan competition binding	–	1 µM	relative to: DMSO control	remaining binding	36%
C=CC(=O)Nc1cc(Nc2nccc(-c3cn(C)c4ccccc34)n2)c(OC)cc1N(C)CCNC	–	–	human plasma	72 h, storage stability, LLOQ sample	–	recovery	51.2%
F[C@@H]1[C@H](c2ccc(-c3cnc(N4CCOCC4)nc3)cc2)[C@H](F)[C@H](F)C[C@@H]1F	–	liver microsome stability	rat liver microsomes	1 µM	–	hepatic clearance	31 mL/min/kg

Excerpt of the above:
Compound	tested on	test	system	setting	how to read	quantity	result
O=C(CN1CCOCC1)Nc1ccc(C2CCCCC2)cc1	–	liver microsome stability	mouse liver microsomes	1 µM	–	hepatic clearance	80 mL/min/kg
O=C(Nc1cnccc1-c1ccc([18F])cc1)c1ccnc(NC(=O)C2CC2)c1	–	–	FVB/NJ mice (both sexes), spleen	intravenous, dose not given, 120 min, together with: tariquidar 15 mg/kg i.v. pre-dose	–	SUV	0.36
Cc1nn(-c2cccc(N)c2)c(=O)c2cnc(Nc3ccc(N4CCNCC4)cc3)nc12	Serine/threonine-protein kinase N1 (PKN1, Homo sapiens, UniProt Q16512)	enzyme activity, inhibitor	–	–	–	IC50	> 10000 nM
COc1ccc(-c2ccc([C@H]3[C@@H](F)[C@@H](F)C[C@@H](F)[C@H]3F)cc2)cc1OC	–	hepatocyte stability	cryopreserved human hepatocytes	1 µM	–	hepatic clearance	11 mL/min/kg
